Measured values pooled from the literature.
Compare with care: the assays were run in different laboratories. ± gives the spread as reported.

O=C(NCC1OC2CCC=CCCC2O1)c1ccc([18F])nc1 (stereo not drawn)  tissue uptake (healthy female BALB/c nude mice, skin; intravenous, 7.4 MBq per mouse, 120 min): 0.6 ± 0.3 %ID/g
COc1cccc(OC)c1-c1cc(C(=O)NC2(C(=O)O)C3CC4CC(C3)CC2C4)nn1-c1ccc(C(=O)NCCNC(=O)[C@H](CCCCNC(=O)[C@H](CC(C)C)NC(=O)C2OC2C(=O)O)NC(=O)CN2CCN(CC(=O)[O-])CCN(CC(=O)[O-])CCN(CC(=O)[O-])CC2)cc1C(C)C.[177Lu+3] (mixture of isomers)  tissue uptake (mouse, HT-29 xenograft, kidney; 72 h post injection): 2.39 %ID/g
O=C(Nc1ccc([C@H]2[C@@H](F)[C@@H](F)C[C@@H](F)[C@H]2F)cc1)C1(N2CCOCC2)CC1  hepatic clearance (hepatocyte stability; cryopreserved rat hepatocytes; 1 µM): 44 mL/min/kg
Nc1ncc(-c2cc(-c3cnn(CC(F)(F)F)c3)ncc2F)nc1C(=O)NC1CNCC(F)C1 (stereo not drawn)  remaining binding (TRKA; KINOMEscan competition binding; 1 µM; baseline: DMSO control): 36%
COc1cccc(OC)c1-c1cc(C(=O)NC2(C(=O)O)C3CC4CC(C3)CC2C4)nn1-c1ccc(C(=O)N(C)CCOCCN(C)C(=O)[C@H](CCCCNC(=O)[C@H](CC(C)C)NC(=O)C2OC2C(=O)O)NC(=O)CN2CCN(CC(=O)[O-])CCN(CC(=O)[O-])CCN(CC(=O)[O-])CC2)cc1C(C)C.[177Lu+3] (mixture of isomers)  tissue uptake (mouse, HT-29 xenograft, lung; 4 h post injection): 1.3 %ID/g
C=C(NC(=O)c1csc(-c2nc3c(cc2O)-c2nc(cs2)C(=O)NC(C(C)O)C(=O)NC(=C(C)OC)c2nc(cs2)C(=O)NC2c4nc(cs4)C(=O)NC(COC(=O)c4c5c6c(cccc6n4O)COC(=O)C(OC4CC(C)(O)C(N(C)C)C(C)O4)C2OC5)c2nc-3cs2)n1)C(N)=O (stereo not drawn)  volume of distribution (Sprague-Dawley rat, both sexes, plasma; intravenous infusion, 6 mg/kg single dose): 24.1 L/kg
CC(C)Cc1ccc(C(C)C(=O)N[C@@H](CCCCNC(=O)CCOCCOCCOCCOCCOCCOCCNC(=O)CN2CCN(CC(=O)[O-])CCN(CC(=O)[O-])CCN(CC(=O)[O-])CC2)C(=O)Nc2cccc3c(C(=O)NCC(=O)N4CC(F)(F)C[C@H]4C#N)ccnc23)cc1.[177Lu+3] (stereo partly drawn)  tissue uptake (mouse, U-87 MG tumour xenograft, brain; 4 h): 0.3 ± 0.1 %ID/g
COc1cccc(OC)c1-c1cc(C(=O)NC2(C(=O)O)C3CC4CC(C3)CC2C4)nn1-c1ccc(C(=O)N(C)CCCN(C)CCCN(C)C(=O)[C@H](CCCCNC(=O)[C@H](CC(C)C)NC(=O)C2OC2C(=O)O)NC(=O)CN2CCN(CC(=O)[O-])CCN(CC(=O)[O-])CCN(CC(=O)[O-])CC2)cc1C(C)C.[177Lu+3] (mixture of isomers)  tissue uptake (mouse, HT-29 xenograft, lung; 168 h post injection): 0.9 %ID/g
N#C[C@@H]1CC(F)(F)CN1C(=O)CNC(=O)c1ccnc2c(NC(=O)[C@H](CCCCNC(=O)CCOCCOCCOCCOCCOCCOCCNC(=O)CN3CCN(CC(=O)[O-])CCN(CC(=O)[O-])CCN(CC(=O)[O-])CC3)NC(=O)CCCc3ccc(I)cc3)cccc12.[177Lu+3]  tissue uptake (mouse, U-87 MG tumour xenograft, spleen; 1 h): 5.37 ± 2.4 %ID/g
[123I]c1ccc2nc(-c3ccc(-n4ccnn4)nc3)cn2c1  tissue uptake (Wistar rat, male, adrenals; intravenous, 4 MBq, 5 min): 19.9 ± 7.46 %ID/g
CC(=O)Nc1ccc(C2CCCCC2)cc1  hepatic clearance (hepatocyte stability; cryopreserved mouse hepatocytes; 1 µM): 83 mL/min/kg
[11CH3]N1CCC(NC(=O)c2cc(-c3c(O)cc(O)cc3Oc3ccc([N+](=O)[O-])cc3)on2)CC1  tissue uptake (Wistar rat, female, healthy, lungs; intravenous, 2 min): 1.2 ± 0.3 %ID
Cc1cc(C)n(CCN(CCN)CCCCCCNC(=O)[C@@H](N)Cc2c[nH]cn2)n1.[99Tc+].[C-]#[O+].[C-]#[O+].[C-]#[O+]  tissue uptake (BALB/c nude mice, MCF7 xenograft, lung; intravenous, 15 min): 2.72 ± 0.3 %IA/g
N#C[C@@H]1CC(F)(F)CN1C(=O)CNC(=O)c1ccnc2c(NC(=O)CCOCCOCCOCCOCCOCCOCCNC(=O)[C@H](CCCCNC(=O)CN3CCN(CC(=O)[O-])CCN(CC(=O)[O-])CCN(CC(=O)[O-])CC3)NC(=O)CCCc3ccc(I)cc3)cccc12.[177Lu+3]  tissue uptake (mouse, U-87 MG tumour xenograft, brain; 48 h): 0.01 ± 0.01 %ID/g
CCCC[C@H](NC(=O)CCCCCCCNC(=O)CN1CCN(CC(=O)O)CCN(CC(=O)O)CC1)C(=O)N[C@H]1CC(=O)NCCCC[C@@H](C(N)=O)NC(=O)[C@H](Cc2c[nH]c3ccccc23)NC(=O)[C@H](CCCNC(=N)N)NC(=O)[C@@H](Cc2ccccc2)NC(=O)[C@H](Cc2c[nH]cn2)NC1=O [fluorine-18 labelled]  tissue uptake (C57 mice B16-F10 melanoma, muscle; intravenous, 0.37 MBq, 0.5 h): 0.68 ± 0.24 %ID/g
O=C(O)CCCOc1ccc([18F])cc1-c1cc(-c2ccccc2C(F)(F)F)n(-c2ccccc2)n1  tissue uptake (mouse, bladder; intravenous, dose not given, 360 min): 0.15 ± 0.12 %ID/g
N#C[C@@H]1CC(F)(F)CN1C(=O)CNC(=O)c1ccnc2c(NC(=O)[C@@H](N)CCCCNC(=O)CCOCCOCCOCCOCCOCCOCCNC(=O)CN3CCN(CC(=O)[O-])CCN(CC(=O)[O-])CCN(CC(=O)[O-])CC3)cccc12.[177Lu+3]  tissue uptake (mouse, U-87 MG tumour xenograft, spleen; 24 h): 0.08 ± 0.01 %ID/g
COC1CN([C@H]2CC[C@H]([C@@]3(C)Oc4c(Cl)cc(C(=O)NCc5c(SC)cc(C)[nH]c5=O)c(C)c4O3)CC2)C1  log2 fold change (RNA-seq, item: GYG1 mouse homolog; mouse, HT-1376 xenograft, whole blood; dose not given; baseline: vehicle): 0.289

Repeated from above:
CC(C)Cc1ccc(C(C)C(=O)N[C@@H](CCCCNC(=O)CCOCCOCCOCCOCCOCCOCCNC(=O)CN2CCN(CC(=O)[O-])CCN(CC(=O)[O-])CCN(CC(=O)[O-])CC2)C(=O)Nc2cccc3c(C(=O)NCC(=O)N4CC(F)(F)C[C@H]4C#N)ccnc23)cc1.[177Lu+3] (stereo partly drawn)  tissue uptake (mouse, U-87 MG tumour xenograft, brain; 4 h): 0.3 ± 0.1 %ID/g
C=C(NC(=O)c1csc(-c2nc3c(cc2O)-c2nc(cs2)C(=O)NC(C(C)O)C(=O)NC(=C(C)OC)c2nc(cs2)C(=O)NC2c4nc(cs4)C(=O)NC(COC(=O)c4c5c6c(cccc6n4O)COC(=O)C(OC4CC(C)(O)C(N(C)C)C(C)O4)C2OC5)c2nc-3cs2)n1)C(N)=O (stereo not drawn)  volume of distribution (Sprague-Dawley rat, both sexes, plasma; intravenous infusion, 6 mg/kg single dose): 24.1 L/kg
